Measurements of several laboratories.
Parts stem from different laboratories: compare values within a part only. Changes are numbered by the printed parent chain.

Block 1
Target: PABPC1L2, full length, GST fusion (mouse, UniProt A0ABA7IW68)
Method: RNAcompete
Molecule type: RNA
Matrix: in vitro
Concentration: 20 nM
Notes: 7-mer, probes averaged, single round
Relative to: mean of 7-mers
Reading: higher = stronger binding
Construct (chain): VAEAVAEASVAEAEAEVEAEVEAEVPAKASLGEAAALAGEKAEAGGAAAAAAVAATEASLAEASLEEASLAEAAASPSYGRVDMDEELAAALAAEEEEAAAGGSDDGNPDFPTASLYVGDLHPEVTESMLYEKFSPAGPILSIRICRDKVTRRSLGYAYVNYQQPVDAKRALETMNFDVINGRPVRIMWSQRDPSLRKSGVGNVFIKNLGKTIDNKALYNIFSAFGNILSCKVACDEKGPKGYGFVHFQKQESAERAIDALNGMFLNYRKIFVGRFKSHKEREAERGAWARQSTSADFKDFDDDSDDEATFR
| Sequence | 7-mer Z-score |
| --- | --- |
| GCCGAAU | -0.122 |
| GAUGGAC | -0.0391 |
| CAGCCAG | -0.19 |
| CUUCGAU | -0.135 |
| AGAUUCA | -0.18 |
| CAGCGCA | -0.19 |
| CUCUUUA | -0.0228 |
| AGGUCAA | 0.128 |
| CUACAGU | -0.175 |
| GUAAUGG | 0.066 |
| CCUUCUG | -0.331 |
| UAAUCAU | -0.117 |
| AGGUGAG | 0.0787 |
| AUCUAGA | 0.104 |
| CCAACGC | -0.298 |
| UUGGUGU | -0.309 |
| GUACCAA | 0.0261 |
| CGUGUUG | -0.296 |
| UGUAAGG | 0.166 |
| UUUUACA | -0.0645 |
| AAAGUAC | 1.4 |
| UGAUGGC | -0.0663 |
| UUAAUGG | -0.17 |
| AAUCCCC | -0.358 |
| UCCUAUA | -0.195 |

Block 2
Target: UBE2Z UBC core domain (UniProt Q9H832)
Sequence of UniProt Q9H832 (whole entry, looked up): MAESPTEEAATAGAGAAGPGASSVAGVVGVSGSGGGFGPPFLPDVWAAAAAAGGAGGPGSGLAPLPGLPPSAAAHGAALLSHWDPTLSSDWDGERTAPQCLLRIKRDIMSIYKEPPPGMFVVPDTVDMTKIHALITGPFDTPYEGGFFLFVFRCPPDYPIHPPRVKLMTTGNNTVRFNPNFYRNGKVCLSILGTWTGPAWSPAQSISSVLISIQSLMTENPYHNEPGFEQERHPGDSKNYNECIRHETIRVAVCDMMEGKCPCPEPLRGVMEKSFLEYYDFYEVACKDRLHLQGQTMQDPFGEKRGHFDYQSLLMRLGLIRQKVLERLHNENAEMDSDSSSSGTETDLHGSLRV
Method: yeast two-hybrid
Matrix: yeast
Notes: mostly zero background
Relative to: not given
Reading: higher = stronger interaction
B1: TRIM37 RING domain (UniProt O94972); chain SVESIAEVFRCFICMEKLRDARLCPHCSKLCCFSCIRRWLTEQRAQCPHCRAPLQLRELVN
B2: RNF187 RING domain (UniProt Q5TA31); chain ALPAGPAEAACALCQRAPREPVRADCGHRFCRACVVRFWAEEDGPFPCPECADDCWQRAVEP
B3: RNF166 RING domain (UniProt Q96A37); chain GDSGLEAQYTCPICLEVYHRPVAIGSCGHTFCGECLQPCLQVPSPLCPLCRLPFDPKKVDK
B4: RNF183 RING domain (UniProt Q96D59); chain EQQGRELEAECPVCWNPFNNTFHTPKMLDCCHSFCVECLAHLSLVTPARRRLLCPLCRQPTVLASGQP
B5: ANAPC11 RING domain (UniProt Q9NYG5); chain GICRMAFNGCCPDCKVPGDDCPLVWGQCSHCFHMHCILKWLHAQQVQQHCPMCRQEWKFKE
B6: RNF152 RING domain (UniProt Q8N8N0); chain ETLSQDSLLECQICFNYYSPRRRPKLLDCKHTCCSVCLQQMRTSQKDVRCPWCRGVTKLPPGFS
B7: TRIM60 RING domain (UniProt Q495X7); chain ALVNLQEESSCPICLEYLKDPVTINCGHNFCRSCLSVSWKDLDDTFPCPVCRFCFPYKSFRR
B8: RNF2 RING domain (UniProt Q99496); chain SPRSLHSELMCPICLDMLKNTMTTKECLHRFCADCIITALRSGNKECPTCRKKLVSKRSLR
B9: TRIM31 RING domain (UniProt Q9BZY9); chain FVNKLQEEVICPICLDILQKPVTIDCGHNFCLKCITQIGETSCGFFKCPLCKTSVRKNAIRF
B10: RNF122 RING domain (UniProt Q9H9V4); chain AKKLQLYGQTCAVCLEDFKGKDELGVLPCQHAFHRKCLVKWLEVRCVCPMCNKPIASPSEAT
| Molecule | lacZ reporter activity |
| --- | --- |
| FVKTVEDKYKCEKCHLVLCSPKQTECGHRFCESCMAALLSSSSPKCTACQESIVKDKVF (TRAF3 RING domain (UniProt Q13114)) | 0 |
| B1 (TRIM37 RING domain) | 0 |
| AEADPLGRFTCPVCLEVYEKPVQVPCGHVFCSACLQECLKPKKPVCGVCRSALAPGVRAV (RNF114 RING domain (UniProt Q9Y508)) | 0 |
| YCEMGSTFQLCKICAENDKDVKIEPCGHLMCTSCLTAWQESDGQGCPFCRCEIKGTEPII (CBLB RING domain (UniProt Q13191)) | 0 |
| B2 (RNF187 RING domain) | 0 |
| B3 (RNF166 RING domain) | 0 |
| B4 (RNF183 RING domain) | 0 |
| B5 (ANAPC11 RING domain) | 0 |
| B6 (RNF152 RING domain) | 0 |
| B7 (TRIM60 RING domain) | 0 |
| B8 (RNF2 RING domain) | 0 |
| B9 (TRIM31 RING domain) | 0 |
| B10 (RNF122 RING domain) | 0 |

Block 3
Target: CCND2, cyclin fold, Cln2 fusion (human)
Method: yeast growth competition, sequencing
Matrix: yeast
Notes: weak parent motif
Relative to: not given
Reading: higher = stronger binding
Starting sequence: SCAPER docking peptide (human); SNARRSLNFGGST
| Substitution | normalised enrichment score |
| --- | --- |
| SRARRSLNFGGST [N2R] | 0.0558 |
| SNARRSLNCGGST [F9C] | -0.255 |
| SNHRRSLNFGGST [A3H] | 0.286 |
| SNARRSLNFGIST [G11I] | 0.331 |
| SNARLSLNFGGST [R5L] | 0.204 |
| SNARRSLKFGGST [N8K] | 0.433 |
| SNARRSVNFGGST [L7V] | 0.0486 |
| SNARTSLNFGGST [R5T] | 0.0779 |
| SNASRSLNFGGST [R4S] | -0.107 |
| SNARRSLNFGGQT [S12Q] | 0.169 |
| SNARRSLNFGGIT [S12I] | 0.131 |
| SNARRILNFGGST [S6I] | 0.672 |

Block 4
Target: ABI1, truncated, D143A, DHFR fusion (Arabidopsis thaliana)
Method: DHFR PCA, deep sequencing
Matrix: yeast
Notes: methotrexate growth selection, single substitutions
Added: (+)-ABA 200 µM
Relative to: wild-type fitted maximum
Reading: higher = stronger binding
Starting sequence: PYL1, truncated, DHFR fusion (Arabidopsis thaliana); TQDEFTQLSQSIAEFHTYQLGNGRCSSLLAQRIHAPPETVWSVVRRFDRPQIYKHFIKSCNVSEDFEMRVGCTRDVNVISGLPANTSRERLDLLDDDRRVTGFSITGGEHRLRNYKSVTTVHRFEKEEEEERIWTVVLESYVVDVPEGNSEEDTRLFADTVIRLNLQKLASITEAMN; partner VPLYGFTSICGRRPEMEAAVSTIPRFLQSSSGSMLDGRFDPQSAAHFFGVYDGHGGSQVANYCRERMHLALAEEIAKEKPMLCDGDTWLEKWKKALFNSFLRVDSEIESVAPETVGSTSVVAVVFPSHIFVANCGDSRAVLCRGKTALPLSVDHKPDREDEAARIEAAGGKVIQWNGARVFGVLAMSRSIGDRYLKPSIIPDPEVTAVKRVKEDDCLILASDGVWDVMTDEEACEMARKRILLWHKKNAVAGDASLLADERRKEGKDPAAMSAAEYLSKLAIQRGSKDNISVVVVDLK
| Substitution | relative binding score |
| --- | --- |
| L28T | 90.5% |
| T6A | 101% |
| L166Y | -0.651% |
| V40R | -23% |
| D96R | 10.4% |
| E128N | 108% |
| G81Q | 27.2% |
| K54T | 2.25% |
| T154H | -15.5% |
| D48E | 97.7% |
| N22D | 100% |
| E127Q | 106% |
| L8F | 111% |
| V62L | 99.3% |
| P146L | 47.2% |
| G108M | 21.9% |
| E139V | 95.8% |
| A35V | 76.4% |
| W41Q | 14.9% |
| T120L | 0.981% |

Block 5
Target: RNA binding protein fox-1 homolog 2, RRM domain, GST-SBP tag (RBFOX2, Homo sapiens, UniProt O43251-10, residues 100-194)
Method: RNA Bind-n-Seq
Molecule type: RNA
Matrix: in vitro
Concentration: 365 nM
Notes: natural RNA segment, single round, ends assumed
Relative to: no-protein control
Reading: higher = stronger binding
All sequences stand within: GGGAGUUCUACAGUCCGACGAUC … UGGAAUUCUCGGGUGCCAA
Target sequence (chain): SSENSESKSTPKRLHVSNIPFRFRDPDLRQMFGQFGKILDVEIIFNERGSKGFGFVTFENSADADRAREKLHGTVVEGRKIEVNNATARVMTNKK
| Sequence | RBNS enrichment (R) |
| --- | --- |
| UGAGGAGCCAGAAGAAACAGAGCCCGACUUGAAUGAACUCAGCUCAGAGUUCUAAGGACCAGCAUUCUGGGGGCCAUUUUCUCUACAGGCAAAUGGAAUUGCUUUUCCAU | 0.347 |
| CUCUGCAGUGGUUUCAAGGACAAAUAGUGUCCAAUGUAUUGGGCCAUUUUUCCUGCUGUUUUUAUACUCAACUUCUCAAAAUGAAAAAAGCUUUUAUUUUUCCUUUGACU | 0.533 |
| AGUUUCAGGAACCAGCCACAUUUCUGGUGUGUAUAUGAGAGGGUGGCUGAUAGCAACUGACUUAGACCUGUACCUGGAUUUCACUUGAAUUUAUAAAAUGUGUAUUGCUC | 2.94 |
| UUUGCACUGCUCCUUUUUCUUGCCCCACCCCUCCUGAUGGGACAAAAGGGUGAAGAGCUCAAAGAACCCCGACUCCCCCCUCCCCUCCCACCUCAUUGUGUACCAUGAGG | 0.297 |
| UGCCCUGUCUGCUCUGCUGCUACAGAGGGGCAGGGCCUCCCCCAGCCCACGCUUAGGAAUGCUUGGCCUCUGGCAGGCAGGCAGCUGUACCCAAGCUGGUGGGCAGGGGG | 0.592 |
| AUCUUGUUGCCACAUGUGCAGCAAACAAAGUGGAAGUAUAGAUCUUCUUCUCCCUUAGGGAGGCUCUUGAAGGAGCAGGAGGUACAGUACUGGGUAGCAGUCUGGCCCUC | 0.205 |
| AUGAAUGCACUGCAUAAAAACUUUGUAGCUUCAUUAUUGUAAAACAUAUUCAAGAUCCUACAGUAAGAGUGAAACAUUCACAAAGAUUUGCGUUAAUGAAGACUACACAG | 0.519 |
| AGUUCGUUGUCGCCAUGCGGCUUUUGCUCAGUCUAGUAUUCUGCCUUGUUUUUCACAUUGGGAACCCUAACAUUACCAGGGAUGCUACUUACCACAAUUUGUAACCCUGA | 0.555 |
| UGCACGUGGGUCCUUGGAGAUGCGUGACCCAUGUCUCUGGCUGGUAAUGUUGCCUGCAGCCCACAUAAAGUGCAGGCAGGAUCAGAAGUAGCCAAGUAGGUUCACUGAGG | 1.9 |
| UGGAUUUUGAAGUUAUUUUAAUUAUAGAAUUAUUUUUUUAGAAGAAAGAUGGAUGUGAUAGUCUAUAUUUGUGUGUUUCUAAAGUUGUGUCUUGUGGGGGAAUUGGAUUC | 7.6 |
| AAAAAAGGAAAAAAAAAAAAAGUAAUCUUAGGGUUCAUAGUUAUGAUCCUGUUGUAACUAUCUUCGGAAGGCAGCAGUAUCUUCUGGAACUUCCAUAUUCCAUUCCUUCC | 0.334 |
| CUCCAUGGAUUUUCUUCCCUGUAAGUGCCGGGCCCCUCACCCCAGCUGACAGGCUGUUGCUGUGCCUGCUCACACCUGCUCCUGCAGGCACACUGGGCUAGGGACGAGGA | 0.239 |

Further values, each from its own experiment
Method: cross-linking MS
| Substance | partner | matrix | notes | added | quantity | result |
| --- | --- | --- | --- | --- | --- | --- |
| SYF2 (Homo sapiens, UniProt O95926) | CRNKL1 (Homo sapiens, UniProt Q9BZJ0) |  | hits only |  | interaction screen | cross-linked |
| NDUFS5 (Homo sapiens, UniProt O43920) | NDUFA13 (Homo sapiens, UniProt Q9P0J0) | cell fractions |  | DSSO | cross-linked residues | K91 to K99 |
| SMARCA1 (Homo sapiens, UniProt P28370) | BAZ1B (Homo sapiens, UniProt Q9UIG0) | cell fractions |  | DSSO | cross-linked residues | K179 to K942 |
| RRS1 (Homo sapiens, UniProt Q15050) | NIP7 (Homo sapiens, UniProt Q9Y221) | cell fractions |  | DSSO | cross-linked residues | K279 to K94 |
